Experimental data gathered from unrelated publications.
“And” joins repeats or separate records; there may be more than shown. ± marks the error that the study gave.
FAAH: Fatty-acid amide hydrolase 1 (FAAH, Homo sapiens, UniProt O00519)
Chain of UniProt O00519 (whole entry, looked up): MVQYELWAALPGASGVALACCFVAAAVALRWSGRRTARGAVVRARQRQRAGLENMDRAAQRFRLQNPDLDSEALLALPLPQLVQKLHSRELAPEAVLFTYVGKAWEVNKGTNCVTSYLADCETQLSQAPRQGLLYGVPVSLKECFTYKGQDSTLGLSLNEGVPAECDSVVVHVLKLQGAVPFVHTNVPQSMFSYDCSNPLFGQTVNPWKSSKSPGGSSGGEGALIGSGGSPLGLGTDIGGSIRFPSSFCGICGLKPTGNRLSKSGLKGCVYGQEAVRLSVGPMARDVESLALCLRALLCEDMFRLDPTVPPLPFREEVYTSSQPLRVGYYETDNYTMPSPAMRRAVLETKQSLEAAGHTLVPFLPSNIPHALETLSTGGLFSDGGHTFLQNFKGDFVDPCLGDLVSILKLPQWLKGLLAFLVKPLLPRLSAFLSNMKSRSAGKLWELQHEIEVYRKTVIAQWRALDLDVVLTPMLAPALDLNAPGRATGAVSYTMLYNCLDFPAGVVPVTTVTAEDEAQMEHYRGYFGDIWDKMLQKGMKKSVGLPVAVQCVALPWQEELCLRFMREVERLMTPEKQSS
ABCC1: Multidrug resistance-associated protein 1 (ABCC1, Homo sapiens, UniProt P33527)
PARP1: Poly [ADP-ribose] polymerase 1 (PARP1, Homo sapiens, UniProt P09874)
Chain of UniProt P09874 (whole entry, looked up): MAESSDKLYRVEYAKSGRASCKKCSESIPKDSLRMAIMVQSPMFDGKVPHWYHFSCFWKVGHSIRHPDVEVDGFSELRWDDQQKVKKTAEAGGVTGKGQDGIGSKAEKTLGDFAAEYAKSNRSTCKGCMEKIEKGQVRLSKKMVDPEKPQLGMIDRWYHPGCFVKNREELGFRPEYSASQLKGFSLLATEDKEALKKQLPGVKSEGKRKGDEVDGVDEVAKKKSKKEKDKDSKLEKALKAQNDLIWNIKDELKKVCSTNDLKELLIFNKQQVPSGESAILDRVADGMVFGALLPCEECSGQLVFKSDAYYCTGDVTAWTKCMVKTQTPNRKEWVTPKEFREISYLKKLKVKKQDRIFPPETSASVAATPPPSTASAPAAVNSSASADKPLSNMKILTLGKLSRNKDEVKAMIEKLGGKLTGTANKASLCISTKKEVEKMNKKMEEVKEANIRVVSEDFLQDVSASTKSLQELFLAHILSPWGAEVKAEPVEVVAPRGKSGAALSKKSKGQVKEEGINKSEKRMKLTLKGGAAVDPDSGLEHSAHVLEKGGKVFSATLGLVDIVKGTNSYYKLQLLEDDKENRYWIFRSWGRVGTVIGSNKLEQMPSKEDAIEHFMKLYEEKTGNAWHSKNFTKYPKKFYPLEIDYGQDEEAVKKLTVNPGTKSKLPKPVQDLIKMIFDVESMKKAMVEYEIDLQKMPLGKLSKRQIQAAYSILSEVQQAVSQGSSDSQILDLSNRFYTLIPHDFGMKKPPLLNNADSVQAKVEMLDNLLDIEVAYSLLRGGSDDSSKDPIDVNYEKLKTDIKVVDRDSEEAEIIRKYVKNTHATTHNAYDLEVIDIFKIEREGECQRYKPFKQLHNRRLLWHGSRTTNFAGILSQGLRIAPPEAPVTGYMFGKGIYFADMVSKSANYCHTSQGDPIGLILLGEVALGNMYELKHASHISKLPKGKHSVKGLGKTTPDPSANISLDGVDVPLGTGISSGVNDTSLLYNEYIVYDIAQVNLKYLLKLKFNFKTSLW
CXCR4: C-X-C chemokine receptor type 4 (CXCR4, Homo sapiens, UniProt P61073)
Chain of UniProt P61073 (whole entry, looked up): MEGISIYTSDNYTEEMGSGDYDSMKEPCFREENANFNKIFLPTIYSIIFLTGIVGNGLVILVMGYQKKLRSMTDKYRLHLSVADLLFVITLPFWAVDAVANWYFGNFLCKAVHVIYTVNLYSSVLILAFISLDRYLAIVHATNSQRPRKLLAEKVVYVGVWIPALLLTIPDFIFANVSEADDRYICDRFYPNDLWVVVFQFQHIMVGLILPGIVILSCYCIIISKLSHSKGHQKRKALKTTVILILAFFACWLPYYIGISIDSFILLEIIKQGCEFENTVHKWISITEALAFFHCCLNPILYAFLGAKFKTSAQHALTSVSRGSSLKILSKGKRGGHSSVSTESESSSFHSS
CYP1A1: Cytochrome P450 1A1 (CYP1A1, Homo sapiens, UniProt P04798)
HDAC3: Histone deacetylase 3 (HDAC3, Homo sapiens, UniProt O15379)
Chain of UniProt O15379 (whole entry, looked up): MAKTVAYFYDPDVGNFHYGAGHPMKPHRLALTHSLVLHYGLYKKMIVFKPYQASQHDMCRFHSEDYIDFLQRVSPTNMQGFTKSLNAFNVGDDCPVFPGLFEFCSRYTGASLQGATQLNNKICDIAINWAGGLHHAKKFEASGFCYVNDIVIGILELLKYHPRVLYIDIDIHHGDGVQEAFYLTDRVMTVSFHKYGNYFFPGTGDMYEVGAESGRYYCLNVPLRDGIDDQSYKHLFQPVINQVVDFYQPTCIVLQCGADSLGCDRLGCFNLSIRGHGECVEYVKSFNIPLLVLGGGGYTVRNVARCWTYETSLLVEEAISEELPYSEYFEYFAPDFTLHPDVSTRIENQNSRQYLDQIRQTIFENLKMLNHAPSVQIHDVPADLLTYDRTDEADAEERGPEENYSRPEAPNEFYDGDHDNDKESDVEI
CDC7 with DBF4: Cell division cycle 7-related protein kinase, with DBF4 (CDC7, Homo sapiens, UniProt O00311)
Chain of UniProt O00311 (whole entry, looked up): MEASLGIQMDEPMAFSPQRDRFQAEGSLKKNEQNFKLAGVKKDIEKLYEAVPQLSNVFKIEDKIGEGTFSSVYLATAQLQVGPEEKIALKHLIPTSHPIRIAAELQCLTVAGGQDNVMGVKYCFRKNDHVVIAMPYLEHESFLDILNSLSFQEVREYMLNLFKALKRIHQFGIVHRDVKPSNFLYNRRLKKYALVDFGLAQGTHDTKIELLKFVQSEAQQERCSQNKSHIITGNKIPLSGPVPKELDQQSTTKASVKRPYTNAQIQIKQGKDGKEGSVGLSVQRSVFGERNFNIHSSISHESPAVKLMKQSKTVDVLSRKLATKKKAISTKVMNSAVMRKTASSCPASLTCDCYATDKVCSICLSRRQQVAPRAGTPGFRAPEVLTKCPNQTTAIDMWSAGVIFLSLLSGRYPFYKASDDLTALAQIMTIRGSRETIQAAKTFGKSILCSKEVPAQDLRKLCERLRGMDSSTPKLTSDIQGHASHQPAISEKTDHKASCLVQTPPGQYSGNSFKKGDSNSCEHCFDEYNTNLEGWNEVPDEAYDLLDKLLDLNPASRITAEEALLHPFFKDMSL
DPP4: Dipeptidyl peptidase 4 (DPP4, Homo sapiens, UniProt P27487)
Chain of UniProt P04035 (whole entry, looked up): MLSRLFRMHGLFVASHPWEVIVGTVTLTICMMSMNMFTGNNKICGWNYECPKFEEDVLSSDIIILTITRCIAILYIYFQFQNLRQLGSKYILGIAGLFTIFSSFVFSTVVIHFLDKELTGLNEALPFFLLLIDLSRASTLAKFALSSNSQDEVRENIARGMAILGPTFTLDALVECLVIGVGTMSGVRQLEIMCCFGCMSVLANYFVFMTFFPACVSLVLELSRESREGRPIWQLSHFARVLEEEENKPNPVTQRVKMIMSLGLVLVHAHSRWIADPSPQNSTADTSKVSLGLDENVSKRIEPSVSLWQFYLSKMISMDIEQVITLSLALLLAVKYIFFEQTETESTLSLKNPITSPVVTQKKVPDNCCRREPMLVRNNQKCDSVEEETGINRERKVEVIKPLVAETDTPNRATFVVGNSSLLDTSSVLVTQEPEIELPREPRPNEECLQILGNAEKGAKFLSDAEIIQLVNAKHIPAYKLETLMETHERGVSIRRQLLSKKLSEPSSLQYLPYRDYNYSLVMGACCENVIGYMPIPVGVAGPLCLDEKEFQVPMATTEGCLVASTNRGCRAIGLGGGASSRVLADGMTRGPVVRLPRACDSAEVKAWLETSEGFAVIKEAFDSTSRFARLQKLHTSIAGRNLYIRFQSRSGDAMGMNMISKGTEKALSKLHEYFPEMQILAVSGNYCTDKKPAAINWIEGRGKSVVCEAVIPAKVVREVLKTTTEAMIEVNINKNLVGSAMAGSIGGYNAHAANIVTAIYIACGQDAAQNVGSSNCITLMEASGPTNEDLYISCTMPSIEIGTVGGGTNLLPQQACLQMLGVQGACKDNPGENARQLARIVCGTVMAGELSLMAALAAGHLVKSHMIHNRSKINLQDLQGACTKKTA
Chain of UniProt Q86U42 (whole entry, looked up): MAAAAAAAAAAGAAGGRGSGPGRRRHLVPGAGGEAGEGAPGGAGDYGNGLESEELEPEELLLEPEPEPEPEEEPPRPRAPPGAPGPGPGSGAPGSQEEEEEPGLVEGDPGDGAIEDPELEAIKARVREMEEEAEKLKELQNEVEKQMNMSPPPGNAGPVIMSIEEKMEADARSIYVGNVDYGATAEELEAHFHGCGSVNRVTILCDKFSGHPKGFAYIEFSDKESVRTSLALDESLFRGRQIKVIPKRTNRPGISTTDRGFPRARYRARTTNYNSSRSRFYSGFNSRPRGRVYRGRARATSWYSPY
Chain of UniProt Q86VL8 (whole entry, looked up): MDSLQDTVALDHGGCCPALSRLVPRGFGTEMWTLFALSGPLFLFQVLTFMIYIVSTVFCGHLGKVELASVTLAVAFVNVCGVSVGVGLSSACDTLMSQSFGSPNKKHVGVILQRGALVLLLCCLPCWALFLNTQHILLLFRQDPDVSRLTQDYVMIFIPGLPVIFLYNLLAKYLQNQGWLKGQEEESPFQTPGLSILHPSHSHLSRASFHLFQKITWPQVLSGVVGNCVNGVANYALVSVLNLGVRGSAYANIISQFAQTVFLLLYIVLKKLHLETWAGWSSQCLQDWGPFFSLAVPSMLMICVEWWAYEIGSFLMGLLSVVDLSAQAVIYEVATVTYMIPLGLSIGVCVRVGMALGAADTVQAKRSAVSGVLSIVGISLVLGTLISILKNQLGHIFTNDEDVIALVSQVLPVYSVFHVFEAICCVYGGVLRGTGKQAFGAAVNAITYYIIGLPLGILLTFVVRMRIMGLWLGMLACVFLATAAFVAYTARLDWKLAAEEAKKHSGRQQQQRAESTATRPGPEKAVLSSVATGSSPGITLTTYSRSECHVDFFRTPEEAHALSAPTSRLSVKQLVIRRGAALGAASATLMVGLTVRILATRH
Chain of UniProt P28074 (whole entry, looked up): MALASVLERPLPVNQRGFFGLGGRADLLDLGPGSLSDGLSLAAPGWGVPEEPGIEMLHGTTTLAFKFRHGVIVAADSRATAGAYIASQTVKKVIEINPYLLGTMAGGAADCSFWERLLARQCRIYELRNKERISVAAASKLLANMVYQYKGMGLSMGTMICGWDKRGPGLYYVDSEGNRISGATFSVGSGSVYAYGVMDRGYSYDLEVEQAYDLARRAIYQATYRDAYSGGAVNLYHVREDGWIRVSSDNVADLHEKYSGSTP

Molecule	target	test	test system	conditions	IC50
C=C(C)CCOP(=O)(O)OP(=O)(O)OP(=O)(O)OC[C@H]1O[C@@H](n2cnc3c(N)ncnc32)[C@H](O)[C@@H]1O	MAP3K5 (Homo sapiens, UniProt Q99683)	enzyme activity, inhibitor, HotSpot kinase		with: ATP 1 µM	3.4 µM
O=C(OCC1CCCCC1)c1ccc(O)cc1	FAAH	enzyme activity, inhibitor, fluorescence		with preincubation	0.36 µM
CN1CCN(C2=Nc3ccccc3Oc3ccc(Cl)cc32)CC1	ABCC1	substrate efflux, inhibitor, flow cytometry	ABCC1-overexpressing SupT1-Vin cells	with: BODIPY-FL-thapsigargin 100 nM	15.5 ± 5.8 µM
CN1CCN(CCC(=O)Nc2ccc3c(c2)Sc2cccc(-c4cc(=O)cc(N5CCOCC5)o4)c2S3)CC1	PRKDC (Homo sapiens, UniProt P78527)	enzyme activity, inhibitor			9.1 µM
C[C@H](CCC(=O)O)[C@H]1CC[C@H]2[C@@H]3CC[C@@H]4C[C@H](O)CC[C@]4(C)[C@H]3CC[C@]12C	N-acyl-phosphatidylethanolamine-hydrolyzing phospholipase D (Homo sapiens, UniProt Q6IQ20)	enzyme activity, inhibitor		30 min, 25 °C, with: deoxycholic acid 0.2% w/v, PED6	~68 µM
NC(=O)c1cccc2c1O[C@H](CN1CCN(c3ncccn3)CC1)CO2	PARP1				> 5 µM
CC(C)[C@H](CO)Nc1nc(Nc2cc(N)cc(Cl)c2)c2ncn(C(C)C)c2n1	FLT1 (Homo sapiens, UniProt P17948)				> 10 µM
O=P(O)(OC[C@H]1OC(O)[C@H](O)[C@@H]1O)OP(=O)(O)OC[C@H]1O[C@@H](n2cnc3c2ncn2ccnc32)[C@H](O)[C@@H]1O (stereo partly shown)	TRPM2 (Nematostella vectensis, UniProt A7T1N0)	ion current, inhibitor, patch clamp			269 µM and ~270 µM
O=S(=O)(c1cc(C(=S)Nc2cc(F)c(F)c(F)c2)c(Cl)cc1Cl)N1CCOCC1	LPAR3 (Homo sapiens, UniProt Q9UBY5)	Ca2+ mobilization, antagonist	RH7777	with: LPA at EC50	> 100 µM
O=c1ccn([C@H]2C[C@H](O)[C@@H](COP(=O)(O)O)O2)c(=O)[nH]1	Thymidylate kinase (DTYMK, Homo sapiens, UniProt P23919)	ligand displacement			260 µM
CCc1nc(N)nc(N)c1-c1ccc(Cl)cc1	SLC47A2 (Homo sapiens, UniProt Q86VL8)	transport, inhibitor	HEK cells transfected with SLC47A2	0.5 min, with: baricitinib 0.25 µM	0.22 µM and 0.27 µM
COc1ccc2nc(NCc3ccc(CNCCCN4CCCCC4)cc3)nc(NC3CCNCC3)c2c1	CXCR4	ligand displacement, radioligand		cell membranes	0.066 µM
CC1=C(COc2ccc(C#N)cc2)C(=O)c2ccccc2C1=O	TXNRD1 (Homo sapiens, UniProt Q16881)	enzyme activity, inhibitor		pH 7.4, with preincubation	1.5 µM
C#Cc1ccc2c(C)cc(=O)oc2c1	CYP1A1	enzyme activity, inhibitor, fluorescence		6 min, pH 7.6	10.8 µM
N#Cc1c(-c2ccc(Cl)cc2)cc(-c2ccc(NC(=O)CSc3nc4ccccc4c(=O)n3-c3ccccc3)cc2)nc1N	PARP1	enzyme activity, inhibitor, absorbance			0.155 µM
Cc1c(OCC(F)(F)F)ccnc1C[S+]([O-])c1nc2ccccc2[nH]1 (stereo not shown)	MAPT (Homo sapiens, UniProt P10636)	ligand displacement, radioligand			> 10 µM
C#Cc1ccc2ccc(=O)oc2c1	CYP1A1	enzyme activity, inhibitor, fluorescence		6 min, pH 7.6	> 50 µM
NC(=O)c1cccc2c1OC(c1ccc(Br)cc1)C(=O)N2 (stereo not shown)	PARP1				> 2.5 µM
C[C@H](CCC(=O)O)[C@H]1CC[C@H]2[C@@H]3CC[C@@H]4C[C@H](O)CC[C@]4(C)[C@H]3CC[C@]12C	EPHB4 (Homo sapiens, UniProt P54760)	phosphorylation in cells, inhibitor, ELISA			74 µM
Oc1ccc(/C=C/c2cc(O)cc(O)c2)cc1	DNMT1 (Homo sapiens, UniProt P26358)	enzyme activity, inhibitor			40 to 200 µM

Molecule	target	test	test system	conditions	IC50
[Cl-].[Cl-].[Zn+2]	HVCN1 (Homo sapiens, UniProt Q96D96, E119H/H140A)	proton current, inhibitor, whole-cell voltage clamp	human cells	pH 6.5, test pulse 120 mV	0.6 µM
O=C(NC1CCCCC1)OCc1cn(Cc2ccccc2F)nn1	FAAH	enzyme activity, inhibitor, fluorescence		cell membranes	0.619 µM
COc1ccc(-c2cc(=O)c3c(OC)c([C@@H]4O[C@H](C(=O)NCc5ccc(F)cc5)[C@@H](O)[C@H](O)[C@H]4O)c(OC)cc3o2)cc1OC	GSK3B (Homo sapiens, UniProt P49841)	enzyme activity, inhibitor, ADP detection			21.7 µM
Cn1ccnc1C(=O)C1CC1c1ccc(CC(=O)Nc2ccc(Br)cc2)cc1 (stereo not shown)	HDAC3	enzyme activity, inhibitor			> 200 µM
NC(=O)c1cccc2c1OC[C@H](CO)O2	PARP1				> 5 µM
C=CCc1ccc(O)c(-c2ccc(O)c(CC=C)c2)c1	PTPN1 (Homo sapiens, UniProt P18031)	enzyme activity, inhibitor, absorbance		pH 7	63.4 µM
NC(=O)c1cccc2c1O[C@@H](CO)CO2	PARP1				7.8 ± 2.7 µM
COc1cccc2cc(-c3nnc(SCC(=O)Nc4cccc([N+](=O)[O-])c4)n3-c3ccccc3)oc12	fungal tyrosinase	enzyme activity, inhibitor, dopachrome absorbance		pH 6.8, 37 °C, with: L-tyrosine substrate	0.76 ± 1.71 µM
O=C1NC(=O)c2cc(Nc3ccc(F)cc3)c(Nc3ccc(F)cc3)cc21	PSMB5 (Homo sapiens, UniProt P28074)	enzyme activity		with: Suc-LLVY-AMC substrate, ATP	> 30 µM
CO[C@@]1(NC(=O)Cc2cccs2)C(=O)N2C(C(=O)O)=C(COC(N)=O)CS[C@@H]21	mecA (Staphylococcus aureus, UniProt A0A0H2WXF8)				573 ± 63.2 µM
Cc1cc(N)ccc1/N=N/c1cc(S(=O)(=O)O)c2cccc(S(=O)(=O)O)c2c1	Sentrin-specific protease 2 (Homo sapiens, UniProt Q9HC62)	SUMO-1 precursor cleavage, gel-based			> 60 µM
O=C(NCc1ccc(F)cc1)C1CCN(S(=O)(=O)c2cc(Cl)cc(Cl)c2)CC1	Na(+)/citrate cotransporter (Homo sapiens, UniProt Q86YT5)	citrate uptake, inhibitor	HepG2	30 min preincubation, inhibitor also during uptake, with: Li+	0.049 ± 0.003 µM
COC(=O)c1cc2c(C(F)(F)F)cc(-c3ccccc3)cc2n1O	LDHB (Homo sapiens, UniProt P07195)	inhibitor, NADH fluorescence		pyruvate competition, with: 150 µM NADH, 200 µM pyruvate	53.8 ± 4.4 µM
CC(=O)NC(CC(=O)O)c1ccccc1[N+](=O)[O-] (stereo not shown)	alpha-glucosidase	inhibitor		pH 6.8, with: pNPG 1.25 mM	57.6 ± 0.7 µg/mL
CCCCC(C(=O)COc1c(F)c(F)cc(F)c1F)n1cc(C2(N)CCN(C(C)=O)CC2)nn1 (stereo not shown)	DPAP1 (Plasmodium falciparum, UniProt Q8IIJ9)	inhibitor, fluorogenic substrate	Plasmodium falciparum lysate	30 min	> 20 µM
CC1=NN(c2cccc(C(=O)O)c2)C(=O)/C1=C\c1ccc(-c2ccc(Cl)c(C(=O)NC3CCOCC3)c2)o1	DNA repair protein complementing XP-A cells (Homo sapiens, UniProt P23025)	binding to cisplatin-DNA, EMSA		concentration not given, full-length XPA	~40 µM
O=C1C(Cl)=C(Cl)C(=O)c2c(O)ccc(O)c21	PABPN1 (Homo sapiens, UniProt Q86U42)	inhibitor, AlphaScreen counterscreen			3.68 µM
O=C(O)c1ccc(O)cc1	FAAH	enzyme activity, inhibitor, fluorimetric		60 min preincubation, recombinant enzyme, with: OMP substrate 50 µM	> 100 µM
CC(NC(=O)c1ccccc1/N=C/c1c(O)ccc2ccccc12)c1ccccc1 (stereo not shown)	SIRT3 (Homo sapiens, UniProt Q9NTG7)				150 µM
NS(=O)(=O)c1cccc(S(=O)(=O)c2ccc(Cl)c(Cl)c2)c1	mbtI (Mycobacterium tuberculosis, UniProt P9WFX1)	enzyme activity, inhibitor, fluorescence		pH 8	35.1 µM

Molecule	target	test	test system	conditions	IC50
CCCCNNC(=O)c1ccc(Br)cc1	HDAC3	enzyme activity, inhibitor			0.19 µM
Tannic acid	CDC7 with DBF4	enzyme activity, inhibitor, ADP-Glo		Dbf4 complex, with: ATP 12.5 µM	~0.8 µM and 0.77 µM
O=C(/C=C/c1ccc(O)c2oc(-c3ccc(O)c(O)c3)cc12)O[C@H](Cc1ccc(O)c(O)c1)C(=O)O	HMGCR (Homo sapiens, UniProt P04035)	enzyme activity, inhibitor, absorbance			~8 µM and 8 µM
CC(=O)O.[Cu+2].c1ccc(CN2CCCN3CCN(CCCN(Cc4ccccc4)CC3)CC2)cc1	CXCR4	ligand displacement, flow cytometry			0.0298 µM
NC(C(=O)O)[C@@H]1CCN[C@H]1C(=O)O (relative stereo)	AMPA receptor, rat	binding	cortical synaptosomes	with: [3H]-AMPA	31 µM
CC(C)C[C@H](NC(=O)[C@H](Cc1ccncc1)NC(=O)[C@H](Cc1ccccc1)N=[N+]=[N-])C(=O)N[C@H](/C=C/S(C)(=O)=O)Cc1ccc(CN)cc1	Proteasome subunit beta type-6, caspase-like site (PSMB6, Homo sapiens, UniProt P28072)	caspase-like activity, inhibitor	NCI-H929	6 h	> 30 µM
Cn1c(=O)c(=O)n(C)c2cc(S(=O)(=O)NNC(=O)NC(=O)c3ccccc3)ccc21	DPP4	enzyme activity, inhibitor, fluorescence			0.000144 µM
O=c1c(-c2cc(O)c(O)c(O)c2)coc2cc(O)c(O)c(O)c12	CDC7 with DBF4	enzyme activity, inhibitor, ADP-Glo luminescence		with: ATP 12.5 µM	1.15 ± 0.07 µM
O=c1[nH]c2ccccc2n1C1CCN(CCCC(c2ccc(F)cc2)c2ccc(F)cc2)CC1	ABCC1	efflux, inhibitor, flow cytometry	SupT1 cells overexpressing ABCC1	with: ER-Tracker Green 500 nM	12.9 ± 9.1 µM
COc1ccc(Cn2c(NCCNC(=N)NC(=O)c3ccc(F)cc3)nc(=O)n(Cc3ccc(F)cc3)c2=O)cc1	PROKR2 (Homo sapiens, UniProt Q8NFJ6)	ligand displacement, radioligand			1.2 µM
O=C(Nc1cc(Cl)c(F)c(Cl)c1)c1cc(S(=O)(=O)N2CCOCC2)c(Cl)cc1Cl	LPAR4 (Homo sapiens, UniProt Q99677)	Ca2+ mobilization, antagonist	CHO	with: LPA at EC50	> 100 µM
COc1ccc(C(=O)NC2CCCc3c2[nH]c2c(Cl)cccc32)cc1OC (stereo not shown)	Uracil nucleotide/cysteinyl leukotriene receptor, long isoform (GPR17, Homo sapiens, UniProt Q13304)	calcium mobilization, antagonist	1321N1 stably expressing GPR17	resynthesised compound	2.3 µM
O=c1c2ccccc2nc(NN=Cc2ccccc2O)n1-c1ccccc1	PARP1	enzyme activity, inhibitor, absorbance			0.104 µM
C[C@@H](CNCc1ccccc1)N1C[C@H](CCCNC(=N)N)N(CCc2cccc(F)c2)C1=S	NPY5R (Homo sapiens, UniProt Q15761)	receptor activation, antagonist, FLIPR			> 10 µM
CC(=O)c1ccc(NS(=O)(=O)c2ccc3c(c2)n(C)c(=O)c(=O)n3C)cc1	DPP4	enzyme activity, inhibitor, fluorescence			0.00128 µM
O=c1cc(-c2ccc(O)c(O)c2)oc2cc(O)cc(O)c12	UGT1A9 (Homo sapiens, UniProt O60656)	inhibitor	pooled human liver microsomes	no preincubation, with: propofol	> 250 µM
O=c1cc(N2CCOCC2)oc2c(OCc3cccnc3)cccc12	PIK3CB (Homo sapiens, UniProt P42338, D862Q)	enzyme activity, inhibitor			1.1 µM
COc1ccc2c(NC3CCNCC3)nc(NCc3ccc(CNCCCN4CCCCC4)cc3)nc2c1	CXCR4	ligand displacement, radioligand		cell membranes	0.0479 µM

Excerpt of the above:
Molecule	target	test	test system	conditions	IC50
C[C@H](CCC(=O)O)[C@H]1CC[C@H]2[C@@H]3CC[C@@H]4C[C@H](O)CC[C@]4(C)[C@H]3CC[C@]12C	N-acyl-phosphatidylethanolamine-hydrolyzing phospholipase D (Homo sapiens, UniProt Q6IQ20)	enzyme activity, inhibitor		30 min, 25 °C, with: deoxycholic acid 0.2% w/v, PED6	~68 µM
NC(=O)c1cccc2c1O[C@H](CN1CCN(c3ncccn3)CC1)CO2	PARP1				> 5 µM
CC(C)[C@H](CO)Nc1nc(Nc2cc(N)cc(Cl)c2)c2ncn(C(C)C)c2n1	FLT1 (Homo sapiens, UniProt P17948)				> 10 µM
O=P(O)(OC[C@H]1OC(O)[C@H](O)[C@@H]1O)OP(=O)(O)OC[C@H]1O[C@@H](n2cnc3c2ncn2ccnc32)[C@H](O)[C@@H]1O (stereo partly shown)	TRPM2 (Nematostella vectensis, UniProt A7T1N0)	ion current, inhibitor, patch clamp			269 µM and ~270 µM
O=S(=O)(c1cc(C(=S)Nc2cc(F)c(F)c(F)c2)c(Cl)cc1Cl)N1CCOCC1	LPAR3 (Homo sapiens, UniProt Q9UBY5)	Ca2+ mobilization, antagonist	RH7777	with: LPA at EC50	> 100 µM
O=c1ccn([C@H]2C[C@H](O)[C@@H](COP(=O)(O)O)O2)c(=O)[nH]1	Thymidylate kinase (DTYMK, Homo sapiens, UniProt P23919)	ligand displacement			260 µM
CCc1nc(N)nc(N)c1-c1ccc(Cl)cc1	SLC47A2 (Homo sapiens, UniProt Q86VL8)	transport, inhibitor	HEK cells transfected with SLC47A2	0.5 min, with: baricitinib 0.25 µM	0.22 µM and 0.27 µM
COc1ccc2nc(NCc3ccc(CNCCCN4CCCCC4)cc3)nc(NC3CCNCC3)c2c1	CXCR4	ligand displacement, radioligand		cell membranes	0.066 µM
